# Experimental data collected from several papers.
# Parts stem from different laboratories: compare values within a part only.

# Block 1
# Target: Prothrombin, mature alpha-thrombin (F2, Homo sapiens, UniProt P00734)
# Technique: aptamer microarray, sandwich
# Form: DNA with 2'F-ANA
# Sample: in vitro
# Tested at: 200 nM
# Notes: whole 15-mer aptamer, many near background
# Together with: Cy3 exosite-II aptamer, 400 nM
# Reading: higher = stronger binding
# Strand: GGTTGGTGTGGTTGG
Modification,mean fluorescence intensity
2'F-ANA at 1 2 3 5 7 9 10 11 13,45.9 a.u.
2'F-ANA at 2 3 4 5 6 13 14,47.5 a.u.
2'F-ANA at 1 3 4 5 6 7 8 9 11 12 14 15,51.5 a.u.
2'F-ANA at 3 4 5 7 8 11 13,74.7 a.u.
2'F-ANA at 1 2 3 4 5 6 11 12 13 14,66.4 a.u.
2'F-ANA at 1 4 7 8 11 13 14,54.2 a.u.
2'F-ANA at 1 10 11 12 13 14,52.7 a.u.
2'F-ANA at 1 4 7 8 9 10 11 15,50.2 a.u.
2'F-ANA at 3 4 5 8 10 11,56.6 a.u.
2'F-ANA at 1 2 4 5 8 11 13,52.4 a.u.
2'F-ANA at 2 4 5 6 7 8 9 11 13 15,103 a.u.
2'F-ANA at 1 2 3 5 7 8 9 11 15,59.6 a.u.
2'F-ANA at 1 2 3 5 6 7 8 10 12 14,259 a.u.
2'F-ANA at 1 3 5 9 12 14 15,62.9 a.u.
2'F-ANA at 1 3 4 6 7 9 13,178 a.u.
2'F-ANA at 2 3 5 6 7 12,229 a.u.
2'F-ANA at 1 3 4 6 12 15,382 a.u.

# Block 2
# Target: Sal-like protein 4, full length isoform A (SALL4, Homo sapiens, UniProt Q9UJQ4, residues 1-1053)
# Chain of UniProt Q9UJQ4 (whole entry, looked up): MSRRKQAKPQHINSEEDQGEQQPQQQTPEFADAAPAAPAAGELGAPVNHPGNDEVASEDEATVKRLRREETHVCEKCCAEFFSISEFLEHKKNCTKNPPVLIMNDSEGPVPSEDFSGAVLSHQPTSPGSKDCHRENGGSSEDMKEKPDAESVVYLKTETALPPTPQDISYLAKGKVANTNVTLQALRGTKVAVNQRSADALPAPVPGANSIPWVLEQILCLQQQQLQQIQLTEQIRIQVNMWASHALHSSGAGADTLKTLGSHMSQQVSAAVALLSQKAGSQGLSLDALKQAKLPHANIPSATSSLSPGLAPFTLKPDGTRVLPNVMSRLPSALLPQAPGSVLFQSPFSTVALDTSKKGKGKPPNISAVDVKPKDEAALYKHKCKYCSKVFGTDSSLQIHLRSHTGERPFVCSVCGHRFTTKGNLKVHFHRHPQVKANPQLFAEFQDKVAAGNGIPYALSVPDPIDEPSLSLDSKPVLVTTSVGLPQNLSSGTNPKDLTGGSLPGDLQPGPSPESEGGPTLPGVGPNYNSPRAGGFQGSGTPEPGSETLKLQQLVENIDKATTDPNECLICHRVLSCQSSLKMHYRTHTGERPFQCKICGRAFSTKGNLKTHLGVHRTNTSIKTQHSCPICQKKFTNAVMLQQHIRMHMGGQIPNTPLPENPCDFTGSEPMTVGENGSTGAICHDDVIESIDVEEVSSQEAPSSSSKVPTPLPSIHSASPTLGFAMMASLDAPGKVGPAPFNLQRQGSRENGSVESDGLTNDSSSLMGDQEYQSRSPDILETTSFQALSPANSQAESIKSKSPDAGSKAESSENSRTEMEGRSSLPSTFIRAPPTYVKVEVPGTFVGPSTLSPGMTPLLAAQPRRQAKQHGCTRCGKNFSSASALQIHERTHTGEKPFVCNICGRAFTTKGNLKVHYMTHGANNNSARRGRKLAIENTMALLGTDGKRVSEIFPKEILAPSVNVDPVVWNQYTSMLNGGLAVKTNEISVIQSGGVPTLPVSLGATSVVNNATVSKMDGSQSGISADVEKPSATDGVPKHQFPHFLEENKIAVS
# Technique: universal PBM
# Form: double-stranded DNA, one strand shown
# Sample: in vitro
# Tested at: 600 nM
# Notes: 8-mer, flanks averaged, mean of replicates
# Reading: higher = stronger binding
Strand,E-score
CGTGTTCC,-0.161
AGAATCGA,0.0288
ACGTACAA,0.126
ACCGAAGT,-0.0995
GGCGTTTA,0.0789
GACAGAAC,-0.0146
ATTACCAG,0.0719
CGCATCAA,0.0637
CTGCTGCC,-0.227
GCGATCAC,-0.153
TCGATCAA,-0.0231
CATAGTTC,0.0731
ACGCTCAA,-0.00205
AATTGTAG,0.251
CGGTGGGA,-0.305
CTGAAAGC,-0.0803
TAGCTAGA,0.00154
AATGGCCC,-0.261
CAGATCTA,0.0565

# Block 3
# Target: Ras GTPase-activating protein-binding protein 1, RRM domain (G3BP1, Homo sapiens, UniProt Q13283)
# Chain of UniProt Q13283 (whole entry, looked up): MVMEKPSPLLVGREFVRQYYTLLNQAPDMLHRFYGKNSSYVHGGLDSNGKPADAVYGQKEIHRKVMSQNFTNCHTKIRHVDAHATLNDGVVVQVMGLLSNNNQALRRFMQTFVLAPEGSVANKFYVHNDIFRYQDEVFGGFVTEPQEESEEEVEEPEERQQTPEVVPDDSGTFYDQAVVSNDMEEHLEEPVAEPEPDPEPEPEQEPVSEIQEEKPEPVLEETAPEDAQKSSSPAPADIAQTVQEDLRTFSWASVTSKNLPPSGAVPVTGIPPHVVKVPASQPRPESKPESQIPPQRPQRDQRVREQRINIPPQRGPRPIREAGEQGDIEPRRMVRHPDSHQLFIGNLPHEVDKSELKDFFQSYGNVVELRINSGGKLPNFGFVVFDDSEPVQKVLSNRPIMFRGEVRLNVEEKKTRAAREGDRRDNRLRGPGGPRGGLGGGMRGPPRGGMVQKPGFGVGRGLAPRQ
# Technique: RNA Bind-n-Seq
# Form: RNA
# Sample: in vitro
# Tested at: 1 µM
# Notes: whole 134-nt RNA, ends assumed
# Together with: 150 mM KCl
# Reference: input library
# Reading: higher = stronger binding
# Shared flanks, not repeated: GGGAGUUCUACAGUCCGACGAUC … UGGAAUUCUCGGGUGUCAAGG
Strand,log2 enrichment
UCCUGUGCUACACAUCGUAUGUACCGAAUCGGGAAAAAAAGGGUUUUUGGGUUUUUGGGAAAGUAUUAUGUUACGCCGUUCGGAUCUGCA,-0.0631
CAAGUCCUGUGCUACACAUCGUAUGUACCGAAUCGGUUUUUUUGGUUUGGAAAGGAAAGUAUUAUGUUACGCCGUUCGGAUCUGCACUUC,-0.368
ACCAUGCAGGUGGGCAUCUUUGGGAAGUGGGGCAUGGGGGGGAUAGGGAGGGGGGUAACACUUUGGGAACAGGUGGUCCCAGGUCGUUUC,-0.366
CCUCAAGUCCUGUGCUACACAUCGUAUGUACCGAAUCGGAAAGGUUUGGUGGAAAGUAUUAUGUUACGCCGUUCGGAUCUGCACUUCCAG,-0.293
ACCAUACUUGACAACUUCUGAUUGAAUGCCCAUGCCCAAUGCCAACAUCCACGAACGCCAAUGACCAAUGCAGUACAAUGCCAGUGUUUC,-0.0516
CUGUGCUACACAUCGUAUGUACCGAAUCGGGGAAAAAGGGGAAAAAGGGGAAAAAAAGGGGAAAGUAUUAUGUUACGCCGUUCGGAUCUG,0.797
UAACUUUAGAGGAGGAUCUGAUGGAUAUGGCAAUGGACGUGGAUUUGGGGAUGGCUAUAAUGGGUAUGGAGGAGGACCUGGAGGUGGCAA,-0.698
CACAGACAACACGCACCCACACAGACACAGAGGGAAGGAAAUGGGAUGGGGACAGGGUGCACAGCAGGGCGGGGUAGGACCCCAGCCCCU,0.0667
UGGCCCUGGUGGCAUGCGGGGAGGAAGAGGUGGCCUCAUGGAUCGUGAUGGUCCCGGUGGAAUGUUCAGAGGUGGCCGUGGUGGAGACAG,0.746

# Block 4
# Target: Histone acetyltransferase KAT6A, winged helix 2, GST fusion (KAT6A, Homo sapiens, UniProt Q92794, residues 85-181)
# Technique: protein binding microarray
# Form: double-stranded DNA, one strand shown
# Sample: in vitro
# Tested at: not given
# Notes: 8-mer, flanks averaged, mean of 2 arrays, mostly near background
# Reference: not given
# Reading: higher = stronger binding
# Target sequence (chain): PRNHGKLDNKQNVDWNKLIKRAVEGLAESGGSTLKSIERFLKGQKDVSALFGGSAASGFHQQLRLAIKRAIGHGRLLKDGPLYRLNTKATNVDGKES
Strand,E-score
AAGCTGGG,0.0144
AGCGTGGG,0.0338
AGACTCTC,-0.129
GGGAACCC,0.212
ATTAGAAG,-0.0502
ATTTCCCA,0.172
AGCTCGCA,-0.0411
GAGAAGAA,0.00963
CTGATGCC,0.0381
ATTGGACG,-0.111
GAGCTCTA,-0.0632
CGTCCACA,-0.015
ATTCATTA,-0.0242
CCCCTACC,-0.0394
AACCTCAT,0.00257
GTCGCCTA,0.0566
AGCGCACC,0.039
CTCATACC,0.0131
AGGGTTTG,0.026
CCTTGTGA,0.164
ATTCGCTC,0.105

# Block 5
# Molecule: PhoQ, residues 284 288 289 292 302 303 AGGCYF
# Technique: Sort-seq
# Measured: YFP reporter
# Sample: E. coli
# Notes: PhoQ-PhoP variant library
# Together with: 10 µM Mg2+
# Reference: high Mg2+ state
# Reading: higher = stronger signaling
target,fold induction
"PhoP, residues 12 14 15 18 19 VGHWL (Escherichia coli, UniProt P23836)",2.28
"PhoP, residues 12 14 15 18 19 TPWTL (Escherichia coli, UniProt P23836)",1.36
"PhoP, residues 12 14 15 18 19 NFFVT (Escherichia coli, UniProt P23836)",6.58
"PhoP, residues 12 14 15 18 19 LHHYF (Escherichia coli, UniProt P23836)",30.7

# Block 6
# Target: Interferon regulatory factor 7, full length, phosphomimetic (IRF7, Homo sapiens, UniProt Q92985, residues 1-503, S101K/S471D/S472D/S475D/S476D/S477D/S483D/S484D/S487D)
# Technique: protein-binding microarray
# Form: double-stranded DNA, one strand shown
# Sample: in vitro
# Tested at: 250 nM
# Notes: 60-bp whole probe
# Together with: salmon DNA 0.4 mg/ml
# Reference: random background probes
# Reading: higher = stronger binding
# Shared flanks, not repeated: GCCTAGCAC … GTCTTGATTCGCTTGACGCTGCTG
# Residues (chain): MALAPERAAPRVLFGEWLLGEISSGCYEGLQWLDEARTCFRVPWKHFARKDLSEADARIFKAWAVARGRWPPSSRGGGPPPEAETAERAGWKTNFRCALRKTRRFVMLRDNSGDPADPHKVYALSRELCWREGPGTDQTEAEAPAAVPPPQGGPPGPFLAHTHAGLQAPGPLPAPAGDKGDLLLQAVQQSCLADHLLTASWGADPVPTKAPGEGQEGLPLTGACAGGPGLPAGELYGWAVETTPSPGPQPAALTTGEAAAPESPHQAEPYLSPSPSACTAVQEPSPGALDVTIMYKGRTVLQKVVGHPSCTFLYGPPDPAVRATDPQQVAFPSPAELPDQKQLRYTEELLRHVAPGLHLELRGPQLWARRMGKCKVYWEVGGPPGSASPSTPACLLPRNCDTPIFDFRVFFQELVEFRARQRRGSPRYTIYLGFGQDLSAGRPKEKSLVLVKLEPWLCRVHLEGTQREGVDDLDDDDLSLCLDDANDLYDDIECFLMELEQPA
Strand,log fluorescence
GACGATTTAGGGTTTCGAGACGTGCTA,2.15 z-score
GTCATACGAGCGGTAGCCAAGTGCTAG,-0.146 z-score
GACGATCTCGGGTTTCGAGACGTGCTA,2.76 z-score
GACGATCTCAGTATCGAGGCGTGCTAG,-0.123 z-score
TTAGGTCTCCTTTTCCTTTAGTGCTAG,2.29 z-score
TTAGGACTGGTTATCCTTTAGTGCTAG,0.241 z-score
TTAGGTATCGGGTATCCGTTAGTGCTA,0.945 z-score
AAGACCATCCTGTGTCTTAAAGTGCTA,0.349 z-score
TCACTTATCCAATCAGAACTGTGCTAG,0.433 z-score
GACGATCTCGGTTTCGAGACGTGCTAG,4.54 z-score
TTAGATATCCGGTATCGATTAGTGCTA,1.34 z-score
AGGCATCTCGGAGATCTCGAAGTGCTA,-0.743 z-score
GACGTTATCGACTTTCGGGACGTGCTA,0.0322 z-score
TTAGGTTTCGGTTTCGGTAAGTGCTAG,14.6 z-score
AAAGATTTATCAAATGTGGGAGTGCTA,-0.333 z-score
CACGGTATCGGTTTCGGGACGTGCTAG,7.07 z-score
GACGGCCTCCTTTTCCTGACGTGCTAG,0.128 z-score
TTGGGACTGGGGTATCGGTTAGTGCTA,-0.0661 z-score
AAAATGATTGGTTGAACATGGTGCTAG,-0.331 z-score

# Repeated from above (block 2):
Strand,E-score
GGCGTTTA,0.0789
GACAGAAC,-0.0146
ATTACCAG,0.0719
CGCATCAA,0.0637
CTGCTGCC,-0.227
GCGATCAC,-0.153
TCGATCAA,-0.0231
CATAGTTC,0.0731
ACGCTCAA,-0.00205
AATTGTAG,0.251
